Measurements from different studies.
Lines come from different studies, so protocols differ. Numbers after ± are the reported error.

O=C(CN1CCN(c2cc3c(cc2F)c(=O)c(C(=O)O)cn3C2CC2)CC1)Nc1ccc(Cl)cc1  Vss (BALB/c mice female; intravenous, 1.25 mg/kg): 2.2 mL
CCCCCCCCCCCCCCCC(=O)N[C@@H](CCCCNC(=O)[C@H](CCCCNC(=O)CCC(=O)NCCN(C)CCNc1ccnc2cc(C(F)(F)F)ccc12)NC(=O)CCC(=O)NCCN(C)CCNc1ccnc2cc(C(F)(F)F)ccc12)C(=O)N[C@@H](CS)C(=O)NCC(=O)NCC(=O)NCC(=O)N[C@@H](C)C(=O)N[C@@H](CCCNC(=N)N)C(=O)N[C@@H](CCCCN)C(=O)N[C@@H](CCCCN)C(=O)N[C@@H](C)C(=O)N[C@@H](C)C(=O)N[C@@H](CCCCN)C(=O)N[C@@H](C)C(=O)N[C@@H](C)C(=O)N[C@@H](CCCNC(=N)N)C(=O)N[C@@H](CCCCN)C(=O)N[C@@H](CCCCN)C(=O)N[C@@H](C)C(=O)N[C@@H](C)C(=O)N[C@@H](CCCCN)C(=O)N[C@@H](C)C(=O)N[C@@H](C)C(=O)N[C@@H](CCCNC(=N)N)C(=O)N[C@@H](CCCCN)C(=O)N[C@@H](CCCCN)C(=O)N[C@@H](C)C(=O)N[C@@H](C)C(=O)N[C@@H](CCCCN)C(=O)N[C@@H](C)C(=O)N[C@@H](C)C(=O)N[C@@H](CCCNC(=N)N)C(=O)N[C@@H](CCCCN)C(=O)N[C@@H](CCCCN)C(=O)N[C@@H](C)C(=O)N[C@@H](C)C(=O)N[C@@H](CCCCN)C(=O)N[C@@H](C)C(N)=O  fluorescence persistence (C57BL/6 mice, cornea; topical, 700 µM, 140:1 ratio, added: 5 µM siGLO siRNA): ≤ 24 h
CCN(CC)CCOc1ccc(-c2nnn(Cc3ccc(OC)cc3)c2N)cc1  stability (cynomolgus monkeys, plasma; 120 min): stable
CC(C)C[C@@H](N)C(=O)NCC(=O)N[C@H](C)C(=O)N[C@H](CO)C(=O)N[C@H](Cc1c[nH]c2ccccc12)C(=O)N[C@H](Cc1c[nH]cn1)C(=O)N[C@H](CCCNC(=N)N)C(=O)N1CCC[C@@H]1C(=O)N[C@H](CC(=O)O)C(=O)N[C@H](CCCCN)C(=O)N[C@H](CS)C(=O)N[C@H](CS)C(=O)N[C@H](CC(C)C)C(=O)NCC(=O)N[C@H](Cc1ccc(O)cc1)C(=O)N[C@H](CCC(N)=O)C(=O)N[C@H](CCCCN)C(=O)N[C@H](CCCNC(=N)N)C(=O)N1CCC[C@@H]1C(=O)N[C@H](CC(C)C)C(=O)N1CCC[C@@H]1C(N)=O  measured concentration (LC-MS/MS; rat plasma; 25 ng/mL, -80 to 25 °C, 3 freeze-thaw cycles): 22.9 ± 2.3 ng/mL
[11CH3]n1c(=O)n(CCCO)c(=O)c2c1nc(Oc1cccc(OC(F)(F)F)c1)n2Cc1ccc(Cl)cc1  tracer uptake (ex vivo biodistribution; Sprague Dawley rat, liver; 60 min post injection): 2.22 ± 0.42 %ID/g
C[C@H]1N=C(c2ccccc2F)c2cc(Br)ccc2-n2cnc(C(=O)OC3O[C@H](C(=O)O)[C@@H](O)[C@H](O)[C@H]3O)c21 (stereo partly shown)  excretion in urine and feces (Swiss Webster mouse; oral, 750 µg of parent drug, 0 to 48 h; relative to: dose): 6.4 ± 1.1%
CC(C)[C@H](NC(=O)CNC(=O)[C@H](CCC(N)=O)NC(=O)[C@H](C)N)C(=O)O  discontinuation due to adverse events (human; 20 mg/kg, 3 days, thrice daily dosing): 0%
CC[C@H](C)[C@@H]1NC(=O)[C@H]([C@@H](C)O)NC(=O)[C@H](CO)NC(=O)[C@H](CCSC)NC(=O)[C@H](CCCNC(=N)N)NC(=O)[C@@H]2CCCN2C(=O)[C@H](CC(=O)O)NC(=O)CNC(=O)[C@@H]2CSSC[C@@H]3NC(=O)[C@H]([C@@H](C)O)NC(=O)[C@H](CCCCN)NC(=O)[C@@H]4CCCN4C(=O)[C@H](CSSC[C@H](NC(=O)[C@H](C(C)C)NC(=O)[C@H](CC(N)=O)NC(=O)[C@H](CCC(N)=O)NC(=O)[C@@H]4CCCN4C(=O)[C@H]([C@@H](C)CC)NC(=O)[C@H](CCCNC(=N)N)NC(=O)[C@H](CC(=O)O)NC(=O)[C@H](CCCNC(=N)N)NC(=O)[C@@H](N)CSSC[C@@H](C(N)=O)NC(=O)[C@H](CCCCN)NC(=O)CNC3=O)C(=O)N[C@@H](CCC(=O)O)C(=O)N[C@@H](CCC(N)=O)C(=O)N[C@@H](CCSC)C(=O)N[C@@H](CCCCN)C(=O)N[C@@H](CCCCN)C(=O)N[C@@H](CC(N)=O)C(=O)NCC(=O)N[C@@H](CCCCN)C(=O)N2)NC(=O)[C@H](CCC(N)=O)NC(=O)[C@H](CC(C)C)NC(=O)[C@H](CCC(=O)O)NC(=O)[C@H](C)NC1=O  half-life (chemical stability; pig, simulated intestinal fluid): 4.4 h
CC(C)C[C@H](NC(=O)[C@H](Cc1ccc(O)cc1)NC(=O)[C@H](Cc1c[nH]cn1)NC(=O)[C@H](CC(N)=O)NC(=O)[C@H](CC(C)C)NC(=O)[C@H](C)NC(=O)[C@H](CC(C)C)NC(=O)CNC(=O)CNC(=O)[C@@H](NC(=O)[C@@H](NC(=O)[C@H](CCCCN)NC(=O)CNC(=O)[C@@H](NC(=O)[C@H](CCCCN)NC(=O)[C@H](CCCCN)NC(=O)[C@H](C)NC(=O)[C@H](CCCCN)NC(=O)[C@H](CCCNC(=N)N)NC(=O)[C@H](Cc1ccccc1)NC(=O)[C@H](Cc1c[nH]c2ccccc12)NC(=O)[C@H](CC(=O)O)NC(=O)[C@H](CCCCN)NC(=O)[C@H](Cc1c[nH]c2ccccc12)NC(=O)CN)C(C)C)[C@@H](C)O)C(C)C)C(N)=O  acute toxic concentration (zebrafish embryos; 1 h, 4, 28, 52 hpf): 5 µg/mL
CC[C@H](C)C(=O)N1CCC(NC(=O)Nc2ccc(OC(F)(F)F)c(F)c2)CC1  subjects with feeling hot TEAE (healthy volunteers; oral, 0.5 mg single dose): 0%

Excerpt of the above:
C[C@H]1N=C(c2ccccc2F)c2cc(Br)ccc2-n2cnc(C(=O)OC3O[C@H](C(=O)O)[C@@H](O)[C@H](O)[C@H]3O)c21 (stereo partly shown)  excretion in urine and feces (Swiss Webster mouse; oral, 750 µg of parent drug, 0 to 48 h; relative to: dose): 6.4 ± 1.1%
